# Measured values from different studies.
# A part holds a random share of what one study measured. Values joined by “and” are separate records of one study, mostly repeats; a detail may differ.

# Series 1
# Target: Casein kinase II subunit alpha' (CSNK2A2, Homo sapiens, UniProt P19784)
# Effect on: enzyme activity
# Action: inhibitor
# Tested at: 0.5 µM
# Reference: control
Compound,remaining activity [%]
N#Cc1cnc2cnc(NCc3cccnc3)cc2c1Nc1ccc(F)c(Cl)c1,75.2
Clc1ccc(Nc2nnc(Cc3ccncc3)c3ccccc23)cc1,106
O=C1Nc2ccccc2/C1=C\c1c(Cl)[nH]c2ccccc12,94.3
O=C1c2ccccc2-c2nc3nnnn3nc21,76.2
N#C/C(=C(/N)SC1C=CC=CC1)c1cccc(C(O)c2ccncc2)c1 (stereo not shown),110
Oc1cccc(-c2nc(N3CCOCC3)c3oc4ncccc4c3n2)c1,56.2
FC(F)(F)c1ccc(/C=C/c2nc(COc3ccc(CCCCn4ccnn4)cc3)co2)cc1,102
CCCCc1c(-c2ccc(OC)cc2)[nH]c2nccnc12,94.1
O=C1NC(=O)/C(=C/c2ccc3c(c2)OC(F)(F)O3)S1,29.9
O=C1Cc2c([nH]c3ccc(Br)cc23)-c2ccccc2N1,74.6
Cc1cc(Nc2cc(N3CCN(C)CC3)nc(Sc3ccc(NC(=O)C4CC4)cc3)n2)[nH]n1,120
CC(C)N(CCC(=O)c1ccc2ccccc2c1)Cc1ccccc1,95.4
NC(=O)c1ccc(-c2nc(-c3ccc4c(c3)OCCO4)c(-c3ccccn3)[nH]2)cc1,95.9
CC(C)n1cnc2c(Nc3cccc(Cl)c3)nc(NCCO)nc21,91.8
O=c1cc(N2CCOCC2)oc2c(-c3ccccc3)cccc12,93.9
COc1ccc2c(c1)c(C1=C(c3c[nH]c4ccccc34)C(=O)NC1=O)cn2CCCN(C)C,99.3
O=C(O)/C=C/c1cc(Br)c(Br)c(Br)c1Br,17
O=Nc1c(-c2c(O)[nH]c3ccccc23)[nH]c2ccccc12,75
CCN(CC)CCCCN1c2ccccc2Oc2ccc(Cl)cc21,94.6
O=Nc1c(-c2c(O)[nH]c3cc(Br)ccc23)[nH]c2ccccc12,63.1
O=C1NC(=O)c2c1c1c3ccccc3[nH]c1n1cncc21,53.4
O=C(c1cc2cc(O)ccc2[nH]1)c1cc2cc(O)ccc2[nH]1,78.8
O=C1NC(=O)c2c1c1c3ccccc3[nH]c1c1[nH]c3cc(Br)ccc3c21,93.2
N#CC(c1ccnc(NCCc2cccnc2)n1)c1nc2ccccc2s1 (stereo not shown),27.1
CC(C)(C)c1nc2c3cc[nH]c(=O)c3c3cc(F)ccc3c2[nH]1,91.5

# Series 2
# Structure (SMILES): C[C@@H]1CN(c2ccc(-c3cc(C(=O)NCCOCCOCCOCCOCCOCCOCCNC(=O)/C=C/c4[nH]cc(C(=O)N[C@@H](CC(N)=O)c5ccc(F)c(Cl)c5)c4-c4ccc(Cl)cc4F)ccc3F)cc2NC(=O)c2ccc(F)cc2C(F)(F)F)C[C@H](C)N1C
# Action: degrader
# Time: 24 h
# WDR5/DCAF1: WDR5/DCAF1 (Homo sapiens, UniProt P61964+Q9Y4B6)
target,technique,item,tested at,reference,remaining protein level
"WDR5 (Homo sapiens, UniProt P61964)",Jess capillary immunoassay,WDR5 over vinculin,4.69 nM,DMSO,102% and 107% and 98.4%
WDR5/DCAF1,HiBiT luminescence,,1510 nM,,59.5% and 59.2% and 59%
WDR5/DCAF1,HiBiT luminescence,,13.3 nM,,85.3% and 92% and 82.2%

# Series 3
# Cell line: mouse MPNST tumor cells
# Technique: high-content nuclear imaging
# Item: cell number
# Tested at: 10 µM
# Time: 12 h
# Notes: mean of 2 replicates
# Reference: plate mean
# Direction: higher = more cells
Structure (SMILES),nuclei count
COC(=O)C1=C(C)NC(C)=C(C(=O)OCCCN2CCC(c3ccccc3)(c3ccccc3)CC2)[C@H]1c1cccc([N+](=O)[O-])c1,-5.23 z-score
O=[N+]([O-])c1cc2nc(O)c(O)nc2cc1[N+](=O)[O-],2.48 z-score
COc1ccc(Nc2nccc(NCCO)n2)cc1,0.327 z-score
O=C(O)c1cccnc1Nc1cccc(C(F)(F)F)c1,-0.408 z-score
COc1ccc2[nH]cc(CCNC(C)=O)c2c1,0.123 z-score and 0.756 z-score
CC[C@H](C)C(=O)O[C@H]1C[C@H](O)C=C2C=C[C@H](C)[C@H](CC[C@@H](O)C[C@@H](O)CC(=O)O)[C@H]21,1.19 z-score and 1.74 z-score
CC12CC3CC(C)(C1)CC(N)(C3)C2,2.96 z-score and 2.31 z-score
O=C(OC(C(F)(F)F)C(F)(F)F)N1CCC(C(O)(c2ccc3c(c2)OCO3)c2ccc3c(c2)OCO3)CC1,4.17 z-score

# Series 4
# SMILES: CN(C)c1ncnc(-c2ccc3nc(Nc4cc(CN5CCN(C(=O)CC(F)(F)F)CC5)ccn4)[nH]c3c2)c1Cl
# Tested at: 1 µM
target,effect on,technique,remaining binding [%]
"CLK2 (Homo sapiens, UniProt P49760)",cell-free assay,competition with immobilised ligand,90
"MAPKAPK2 (Homo sapiens, UniProt P49137)",cell-free assay,competition with immobilised ligand,100
"DCLK2 (Homo sapiens, UniProt Q8N568)",cell-free assay,competition with immobilised ligand,100
"CSNK1E (Homo sapiens, UniProt P49674)",cell-free assay,competition with immobilised ligand,100
"ACVR2A (Homo sapiens, UniProt P27037)",cell-free assay,competition with immobilised ligand,90
"LTK (Homo sapiens, UniProt P29376)",cell-free assay,competition with immobilised ligand,88
"SIK1 (Homo sapiens, UniProt P57059)",,competition binding,94
"NEK4 (Homo sapiens, UniProt P51957)",cell-free assay,competition with immobilised ligand,84
"RIPK4 (Homo sapiens, UniProt P57078)",cell-free assay,competition with immobilised ligand,100

# Series 5
# Cell line: HaCaT
# Tested at: 100 µM
# Time: 36 h
Compound,viability [%]
CCCNC(C)C(=O)Nc1c(C)csc1C(=O)OC (stereo not shown),97.4
COc1ncnc(NS(=O)(=O)c2ccc(N)cc2)c1OC,89
CCN(CC)CCOCCOC(=O)C(CC)(CC)c1ccccc1,34.2
O=C(c1cc(Cc2n[nH]c(=O)c3ccccc23)ccc1F)N1CCN(C(=O)C2CC2)CC1,88
C[C@H](CCC(=O)O)[C@H]1CC[C@H]2[C@@H]3[C@H](O)C[C@@H]4C[C@H](O)CC[C@]4(C)[C@H]3C[C@H](O)[C@]12C,100
C=C1CCN([C@H](C)[C@](O)(Cn2cncn2)c2ccc(F)cc2F)CC1,41.7
Clc1ccc(C(c2ccccc2Cl)C(Cl)Cl)cc1 (stereo not shown),6.28
NC(=O)N[C@@H](CCC(=O)O)C(=O)O,83.2
CCOc1ccc(Cc2nccc3cc(OCC)c(OCC)cc23)cc1OCC,23
O=[N+]([O-])c1cncn1CCN1CCOCC1,97.3

# For quick reference, copied from above (series 5):
Compound,viability [%]
COc1ncnc(NS(=O)(=O)c2ccc(N)cc2)c1OC,89
CCN(CC)CCOCCOC(=O)C(CC)(CC)c1ccccc1,34.2
O=C(c1cc(Cc2n[nH]c(=O)c3ccccc23)ccc1F)N1CCN(C(=O)C2CC2)CC1,88
